Assay results collected from several papers.
Each line is one published result; not all experiments were run side by side. Values joined by “and” are separate records of one study, mostly repeats; a detail may differ. ± marks the error that the study gave.

SMILES	test	test system	conditions	how to read	remaining compound
COc1cc(NC(C)=O)c2c(c1O)-c1c(OC)c(OC)cc3c1C(C2)N(C)CC3 (stereo not drawn)		rat heart homogenate	50 µg/mL, 4 h, room temperature, short-term storage		89.4 ± 2.3%
N[C@H](COc1ccccc1C(F)(F)F)c1ccccc1		human liver microsomes	1 h, added: NADPH		> 95%
CCCCCCCCCCCCCCCC(=O)OC[C@H]1O[C@@H](n2cc(F)c(N)nc2=O)CS1		human plasma	1 µM, 90 min, 37 °C	baseline: 0 min	20%
CC1=C(C2=C(C)C(=O)c3c(cc(O)c(O)c3Cc3ccccc3)C2=O)C(=O)c2cc(O)c(O)c(Cc3ccccc3)c2C1=O (racemic)		solid	100 days, room temperature		98 ± 0.5%
COC(=O)c1ccc2c(c1)NC(=O)/C2=C(\Nc1ccc2c(c1)CCN2C(=O)CN1CCOCC1)c1ccccc1		SD rat plasma	1 µM, 4 h, 37 °C		67% and 67.2%
COc1cc(CNC(=O)CCCC/C=C/C(C)C)ccc1N		C57BL/6 mouse plasma	2 µM, 120 min		97%
CCCCCCCCCCCCCCCC(=O)N[C@@H](CCC(=O)NCCCC[C@H](NC(=O)[C@H](C)NC(=O)[C@H](C)NC(=O)[C@H](CCC(N)=O)NC(=O)CNC(=O)[C@H](CCC(=O)O)NC(=O)[C@H](CC(C)C)NC(=O)[C@H](Cc1ccc(O)cc1)NC(=O)[C@H](CO)NC(=O)[C@H](CO)NC(=O)[C@@H](NC(=O)[C@H](CC(=O)O)NC(=O)[C@H](CO)NC(=O)[C@@H](NC(=O)[C@H](Cc1ccccc1)NC(=O)[C@@H](NC(=O)CNC(=O)[C@H](CCC(=O)O)NC(=O)[C@H](C)NC(=O)[C@@H](N)Cc1cnc[nH]1)[C@@H](C)O)[C@@H](C)O)C(C)C)C(=O)N[C@@H](CCC(=O)O)C(=O)N[C@@H](Cc1ccccc1)C(=O)N[C@H](C(=O)N[C@@H](C)C(=O)N[C@@H](Cc1c[nH]c2ccccc12)C(=O)N[C@@H](CC(C)C)C(=O)N[C@H](C(=O)N[C@@H](CCCNC(=N)N)C(=O)NCC(=O)N[C@@H](CCCNC(=N)N)C(=O)NCC(=O)O)C(C)C)[C@@H](C)CC)C(=O)O	HPLC	simulated intestinal fluid with pancreatin	2 h		4.56%
O=c1c2ccccc2[se]n1CCCCCCn1[se]c2ccccc2c1=O		mouse blood	24.4 µM, 2 h, 37 °C		64%
CCCCCCCCCCCCCCCC(=O)N[C@@H](CCCCN)C(=O)N[C@H](C(=O)N[C@H](C(=O)N[C@@H](CCCCN)C(=O)N[C@@H](CO)C(=O)O)[C@@H](C)O)[C@@H](C)O	LC-MS/MS	hairless mouse skin homogenate	40 µg/mL, 60 min, pH 7.4, 37 °C		11.2%
NS(=O)(=O)Cc1ccccc1Nc1c(Cl)cccc1Cl	glucuronidation	human liver microsomes	30 min, added: UDPGA		108 ± 1.9%
CCCC(CCC)NC(=O)c1ccc(O)c(OC)c1		rat liver microsomes	1.0 µM, 20 min		80.8%
CO[C@@H](C(N)=O)[C@H](NC(=O)c1ccc(NC(=O)c2ccc([N+](=O)[O-])cc2)cc1)C(=O)Nc1ccc(C(=O)Nc2ccc(C(=O)Nc3ccc(C(=O)O)cc3)c(O)c2OC(C)C)cc1		rat plasma	4 h		66%
CSCCC(NC(C)=O)C(=O)O.[Ru+2].c1ccc(-c2cccc(-c3ccccn3)n2)nc1.c1ccc(-c2ccccn2)nc1		water	24 h, 37 °C		100%
CCC1CC2C(C)=CC3C(=O)CCCC3C=CC(C)=CC2C(=O)O1 (stereo not drawn)		human plasma	10 µM, 2 h, 37 °C		102%
COC[C@H](NC(=O)[C@H](CCc1ccccc1)NC(=O)CN1CCOCC1)C(=O)N[C@H](/C=C/S(C)(=O)=O)CC(C)C		human and mouse plasma	6 h		> 85%
CCCn1cnc(C[C@H](NC(=O)c2cnccn2)C(=O)N2CCC[C@H]2C(N)=O)c1	HPLC	rat plasma	500 µM, 18 h, 37 °C		60%
CC[N+]1=C(C=CC=CC=C2N(CCCCCC(=O)O)c3ccc4c(S(=O)(=O)[O-])cc(S(=O)(=O)[O-])cc4c3C2(C)C)C(C)(C)c2c1ccc1c(S(=O)(=O)[O-])cc(S(=O)(=O)[O-])cc21.[K+].[K+].[K+]		100% serum	24 h, pH 7.4, 37 °C		99%
CSCC(NC(=O)c1cc(Cl)ccc1Cl)C(=O)NC(CC(C)C)B(O)O (stereo not drawn)		mouse liver microsomes	3 µM, 60 min, pH 7.4, added: NADPH		61 ± 0.29%

Some of these lines once more:
SMILES	test	test system	conditions	how to read	remaining compound
CCCCCCCCCCCCCCCC(=O)N[C@@H](CCCCN)C(=O)N[C@H](C(=O)N[C@H](C(=O)N[C@@H](CCCCN)C(=O)N[C@@H](CO)C(=O)O)[C@@H](C)O)[C@@H](C)O	LC-MS/MS	hairless mouse skin homogenate	40 µg/mL, 60 min, pH 7.4, 37 °C		11.2%
NS(=O)(=O)Cc1ccccc1Nc1c(Cl)cccc1Cl	glucuronidation	human liver microsomes	30 min, added: UDPGA		108 ± 1.9%
